Published values from different studies.
Numbered parts are unrelated; each lists some results of a single study. Substitutions count along the parent as printed.

Series 1 — method: EMSA with sequencing; form: double-stranded DNA, one strand shown; matrix: in vitro; tested at: 10 and 20 nM; reference: negative control set to 0; direction: higher = stronger binding; measurement: normalised bound fraction
Target: Hepatocyte nuclear factor 3-alpha (Foxa1, Mus musculus, UniProt P35582, residues 1-468, full length assumed)
UniProt P35582, sequence (whole entry, looked up): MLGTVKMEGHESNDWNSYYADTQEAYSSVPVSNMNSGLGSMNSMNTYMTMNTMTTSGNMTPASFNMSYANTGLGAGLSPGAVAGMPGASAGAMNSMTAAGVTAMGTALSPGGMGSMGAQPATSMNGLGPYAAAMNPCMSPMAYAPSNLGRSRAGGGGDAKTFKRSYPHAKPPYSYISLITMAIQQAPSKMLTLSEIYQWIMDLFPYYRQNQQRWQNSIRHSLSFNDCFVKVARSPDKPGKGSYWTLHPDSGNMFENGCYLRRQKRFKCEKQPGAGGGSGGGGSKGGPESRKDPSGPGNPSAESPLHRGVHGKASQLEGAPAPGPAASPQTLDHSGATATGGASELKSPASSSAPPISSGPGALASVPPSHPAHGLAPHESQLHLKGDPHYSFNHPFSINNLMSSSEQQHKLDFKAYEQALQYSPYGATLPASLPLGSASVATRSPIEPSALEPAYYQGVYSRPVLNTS
Notes: whole designed probe, mean of two concentrations, ends assumed
All sequences stand within: GTGAGCGGTGCCCATTGATGGGGAAC … TTTCACTGGGATCGTGGGGAC
CTAACGTGCAAAATGCTGTACATTAAGTATAGCCAAAATGCAACACTGAGACAGACAGAAAAAACAGGAATTTTTCCAGGGAGATAAATCAAAAGTAATCTAGGAGATAGCTTTAGAGCTGTGCTTTCAATGGCTGGATATTCAAATTATGTTTTATCTCTTAAAATTTCAGAAGTAATATGGGGATACTGAA: -0.0722 ratio
CTTCCAAATTACATGAGATTTCTGTTTCTACATTTTCTTTGTCTTGGCATATTTGATGATGTGCATTGAGTCATTATATAGCTTCTAAGAATCTGTTTACTTTTTACTATGTTAACAATGAGTTCTTGGGGATATTCCTGTTTGAAAATCACTGTACGTGTAGTAAATCTATTTCTGGGATCTCCATTCCCAT: 0.423 ratio
ATCTTCCCCCTCTTCCTTGCCCCACCAGCTCACCTACGGGGGTTATTTGCACAAAGGAAAATAAATAAAGCCGGCATTCGTTAACCCTCTTCACGCGCATACTGCTGTTTGCTCTGCATGAATCATGGTCCTTACGCGAGGCGTGGCTCCGGGAGAGCAAAGCACCGTGTCAGGCGCATGATCCGGGCTCGCC: 0.39 ratio
ATCTTCCCCCTCTTCCTTGCCCCACCAGCTCACCTTCCCGGGTTATTTGCACAAAGGAAAATAAATAAAGCCGGCATTCGTTAACGCAGTTCACGCGCATACTGCTGTTTGCTCTGGATCTAACATGGTCCTTTGGCGAGGCGTGGCTCCGGGAGAGCAAAGCACCGTGTCAGGGCCATGATCCGGGCTCGCC: 0.373 ratio
TCCTCCCCCTCCTACCAGGCAGGGCTGAGCCAGACTGGGGTTCCAAAGCCCTTCCTCCTTCTCGATCCAGAGATAAATATTTGTTTCTCCAGTGTAATTTGCCCTTCGTGTTTAATGAGGCAATCCTAGGGCCATTTCCTGGCACGGCTCAGGGCCTGGAGGTCTTTCTCGCTCTGGGAGGAACAGTCCTAGG: 0.051 ratio
ATCTTCCCCCTCTTCCTTGCCCCACCAGCTCACCTTCCCGGGTATATTGGAGATAGGAAATTAATATAAGCCGGCATTCGTTAACCCTCTTCTGGCGCAAACTGCTGTTTACTTTGGATCTAACATGGTCCTTTGGCGACGCCAGGCTCCGGGAGAGCAAAGCACCGTGTCAGGGCCATGATCCGGGGTGGCC: 0.345 ratio
TTTTCTTCTGGAAATTTACTATATGTAAAAAAGAAGGCAGGAAGGGAATTAAAGGAAAAAGTCCATTCTTCTGATGGCCTTTAAGTATCAAAGTAATCTGAAAATAACCTATTCCAACTACTGTTCCCATTGCTAAAATTGTCTTTTATAAATTTAAGAAAAAATATTAGTAGCAAACATATGATGCAAAGGA: -0.0602 ratio
ATCTTCCCCCTCTTCCTTGCCCCACCAGCTCACCTACGGGGGTTATTTGCAGATAGGAAAATAAATAAAGCCGGCATTCGTTAACCCTCTTCACGCGCATACTGCTGTTTGCTCTGGATCTAACATGGTCCTTTGGCGAGGCGTGGCTCCGGGAGAGCAAAGCACCGTGTCAGGGCCATGATCCGGGGTGGCC: 0.345 ratio

Series 2 — method: RNA Bind-n-Seq; form: RNA; matrix: in vitro; tested at: not given; reference: input RNA pool; direction: higher = stronger binding; measurement: bound/input enrichment
Target: RING finger protein unkempt homolog, zinc fingers 1-6, GST-SBP tag (UNK, Homo sapiens, UniProt Q9C0B0, residues 30-357)
Notes: RNA with constant flanks, human-mouse chimeric sites, ends assumed
All sequences stand within: GGGAGUUCUACAGUCCGACGAUC … CAACAGAGGAUUGAGCAUCA
Residues (chain): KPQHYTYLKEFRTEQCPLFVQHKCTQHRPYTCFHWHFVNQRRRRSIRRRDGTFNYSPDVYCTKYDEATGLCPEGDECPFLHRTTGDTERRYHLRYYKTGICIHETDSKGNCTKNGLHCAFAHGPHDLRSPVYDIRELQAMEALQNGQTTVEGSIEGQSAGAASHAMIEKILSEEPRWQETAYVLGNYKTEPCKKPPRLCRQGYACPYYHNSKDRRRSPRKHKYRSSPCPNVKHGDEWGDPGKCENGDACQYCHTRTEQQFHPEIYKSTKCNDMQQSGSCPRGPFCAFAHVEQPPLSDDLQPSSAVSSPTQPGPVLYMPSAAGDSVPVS
AAAGCCCAAGUAUUUUGAAAAAACUCGAACAGAUUUGUCAAGGGUAACCAGCUUGGAGUCUAGCAACUUGCCAAUGUGUUUACCAAUCUGGGGGCUUGUUUUUCUUUCCCUUCCUUAAAU: 0.297 ratio
AGAAUCUUGGGACUGUUUUACUUAAUUGGUCAUUGAUAGCUUAACAAACAUGGAGAUAAGAUUAGAAAUCUUGACAUCAACAGGUAUCAAGCAGAAAAAACCAUGGCCCAGAGUAUCCUG: 0.112 ratio
UUCUAGUAUGAUGGUGAUAUUGGCAAUUAUUAUUAUGGCCAGGGUCAUCCCAUGAAGCCUCAUAGAAUCCGGAUGACUCAUAACUUGCUGCUAAAUUAUGGCUUAUACCGAAAAAUGGAA: 0.212 ratio
GCAGGAUCUUCUAAGUACCAGUGGGACAUUAUGAAAUCCCUUGGGCUCUCUGAUGACGAGAUAGUAAAGUUUUCUGAAGCAGAGCACUGGCUUGAUUAUUUCCCACCACUGGCUAUUCAG: 0.18 ratio
CGAGACAAGACAUCCAGGAACAUGCGAGGCUCCCGGAUGAAUGGGUUUCCAAGUCCCACUCACAGCGCCCACUGUAGCUUCUACCGAACCAGAACCUUGCAGGCACUGAGUAAUGAGAAG: 0.0648 ratio
GAAUCCUCCCGUGCAAAUCCCACAACAACCAAGCUCACAGCAGCAGCAUCUUAGUCACAGUAGGGUAGUUUUGGGGCUCUGUGGCCAGGGUUUUAUUCACAUGCAGGUUUGGAAAAUGUA: 2.31 ratio
AGGAGGAGGUUAAAGGGUGAGAGUGGGAUGGAGGAUUGUGUCAUGGCUCUGGAGACACUGUUCAGUGUUCUGCUUUCUCUGUGCAGACUGAUGGCCCCUUACACGCCCUUUCUGACUGAG: 0.14 ratio
AUCAAGUACUUUGGGGACAUCAUUAGUGUGGGACAGAGAUUGUUGCAAGGAGCUCGGAUCUUAGGGAUUCCAGUUAUCAUAACGGAACAAUACCCCAAAGGACUUGGCAGCACCGUUCAA: 0.194 ratio

Series 3 — Variant: G21Y; method: DHFR PCA, deep sequencing; matrix: yeast; reference: wild-type fitted maximum; direction: higher = stronger binding; measurement: relative binding score
Target: ABI1, truncated, D143A, DHFR fusion (Arabidopsis thaliana)
Notes: methotrexate growth selection, single substitutions
Starting sequence: PYL1, truncated, DHFR fusion (Arabidopsis thaliana); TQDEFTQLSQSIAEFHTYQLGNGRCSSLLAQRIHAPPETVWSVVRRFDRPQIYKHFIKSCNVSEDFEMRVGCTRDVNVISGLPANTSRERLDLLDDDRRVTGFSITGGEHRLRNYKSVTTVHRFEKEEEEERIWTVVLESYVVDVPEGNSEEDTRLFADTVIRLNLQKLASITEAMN; partner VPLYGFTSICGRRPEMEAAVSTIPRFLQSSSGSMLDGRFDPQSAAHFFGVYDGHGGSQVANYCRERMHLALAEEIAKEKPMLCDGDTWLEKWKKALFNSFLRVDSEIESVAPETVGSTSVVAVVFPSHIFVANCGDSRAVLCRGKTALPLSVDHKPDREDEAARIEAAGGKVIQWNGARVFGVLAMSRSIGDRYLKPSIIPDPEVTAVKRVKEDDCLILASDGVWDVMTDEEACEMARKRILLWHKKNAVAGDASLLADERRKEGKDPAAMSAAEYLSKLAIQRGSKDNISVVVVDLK
added: (+)-ABA 0.11 µM: 5.37%
added: (+)-ABA 200 µM: 96.8%
added: (+)-ABA 0 µM: 6.59%
added: (+)-ABA 2500 µM: 98.7%
added: (+)-ABA 710 µM: 99%
added: (+)-ABA 0.0091 µM: 1.92%

Other studies, line by line — starting sequence: viral docking peptide; CKVKRKLFGSENI
V3A  normalised enrichment score (CCNE2, cyclin fold, Cln2 fusion (human); yeast growth competition, sequencing; yeast; strong parent motif; reference: not given, higher = stronger binding): 3.61

A few entries again (series 1):
ATCTTCCCCCTCTTCCTTGCCCCACCAGCTCACCTACGGGGGTTATTTGCACAAAGGAAAATAAATAAAGCCGGCATTCGTTAACCCTCTTCACGCGCATACTGCTGTTTGCTCTGCATGAATCATGGTCCTTACGCGAGGCGTGGCTCCGGGAGAGCAAAGCACCGTGTCAGGCGCATGATCCGGGCTCGCC: 0.39 ratio
ATCTTCCCCCTCTTCCTTGCCCCACCAGCTCACCTTCCCGGGTTATTTGCACAAAGGAAAATAAATAAAGCCGGCATTCGTTAACGCAGTTCACGCGCATACTGCTGTTTGCTCTGGATCTAACATGGTCCTTTGGCGAGGCGTGGCTCCGGGAGAGCAAAGCACCGTGTCAGGGCCATGATCCGGGCTCGCC: 0.373 ratio
